Assay results from different studies.
Every numbered part comes from another study and shows a few of its results, in no order. Substitutions count along the parent as printed.

Block 1 — technique: RNAcompete; form: RNA; medium: in vitro; tested at: 20 nM; notes: 7-mer, probes averaged, single round; relative to: mean of 7-mers; direction: higher = stronger binding
Target: PABPC1L2, full length, GST fusion (mouse, UniProt A0ABA7IW68)
Construct (chain): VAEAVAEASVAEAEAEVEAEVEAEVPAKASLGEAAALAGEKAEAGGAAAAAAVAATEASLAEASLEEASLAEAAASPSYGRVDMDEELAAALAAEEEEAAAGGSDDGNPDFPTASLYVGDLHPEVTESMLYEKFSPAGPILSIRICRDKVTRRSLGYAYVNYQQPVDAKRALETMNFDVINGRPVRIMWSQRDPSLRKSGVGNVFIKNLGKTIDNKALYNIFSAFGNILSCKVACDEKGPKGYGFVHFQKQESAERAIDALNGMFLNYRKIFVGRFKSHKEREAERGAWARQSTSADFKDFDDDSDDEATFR
| Strand | 7-mer Z-score |
| --- | --- |
| GGCCCUA | -0.199 |
| CAAGUGU | -0.108 |
| UCGACCC | -0.286 |
| UCAUCCU | -0.432 |
| CGAUCCU | -0.38 |
| UUCUGUU | -0.443 |
| UUGGGUC | 0.037 |
| GGUUACC | -0.0609 |

Block 2 — technique: protein-binding microarray; form: double-stranded DNA, one strand shown; medium: in vitro; tested at: 2200 nM top; notes: 60-bp whole probe; added: salmon DNA 0.4 mg/ml; relative to: random background probes; direction: higher = stronger binding; shared flanks, not repeated: GCCTAGCAC … GTCTTGATTCGCTTGACGCTGCTG
Target: Interferon regulatory factor 7, full length, phosphomimetic (IRF7, Homo sapiens, UniProt Q92985, residues 1-503, S471D/S472D/S475D/S476D/S477D/S483D/S484D/S487D)
Target sequence (chain): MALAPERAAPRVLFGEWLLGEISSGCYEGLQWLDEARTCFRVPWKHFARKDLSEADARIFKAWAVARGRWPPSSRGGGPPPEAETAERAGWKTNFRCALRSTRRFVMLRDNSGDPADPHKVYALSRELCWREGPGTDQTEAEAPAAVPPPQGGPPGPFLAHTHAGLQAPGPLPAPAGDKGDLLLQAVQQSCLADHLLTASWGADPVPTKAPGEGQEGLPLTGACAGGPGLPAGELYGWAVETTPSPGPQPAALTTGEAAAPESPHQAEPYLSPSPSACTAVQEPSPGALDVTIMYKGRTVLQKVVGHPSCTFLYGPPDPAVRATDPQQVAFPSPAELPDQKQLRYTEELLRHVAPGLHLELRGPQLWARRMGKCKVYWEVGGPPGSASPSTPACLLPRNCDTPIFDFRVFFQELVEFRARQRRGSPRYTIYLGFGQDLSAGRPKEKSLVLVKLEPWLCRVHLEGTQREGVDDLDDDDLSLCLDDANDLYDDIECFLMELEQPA
| Strand | fitted relative affinity [z-score] |
| --- | --- |
| TTAGAACTGCTTATCCTTTAGTGCTAG | 0.4 |
| TTAGAACTGAGACTGGATCAGTGCTAG | -0.575 |
| GACGATTTCAGGTATCGAGACGTGCTA | 0.999 |
| GACGATTTCAGTTCCGAGATGTGCTAG | 1.87 |
| GGGAGATGACTAAGAGGGGTGTGCTAG | -0.903 |
| TTGTCTTTTCATTTTCTTTAGTGCTAG | 3.32 |
| GACGGACTGGGGGATCGGGACGTGCTA | -0.124 |
| GACGGTATCAGTCTCGGGACGTGCTAG | 0.117 |

Single results of other studies
P1: viral docking peptide; TSVRRALFTGGSD; partner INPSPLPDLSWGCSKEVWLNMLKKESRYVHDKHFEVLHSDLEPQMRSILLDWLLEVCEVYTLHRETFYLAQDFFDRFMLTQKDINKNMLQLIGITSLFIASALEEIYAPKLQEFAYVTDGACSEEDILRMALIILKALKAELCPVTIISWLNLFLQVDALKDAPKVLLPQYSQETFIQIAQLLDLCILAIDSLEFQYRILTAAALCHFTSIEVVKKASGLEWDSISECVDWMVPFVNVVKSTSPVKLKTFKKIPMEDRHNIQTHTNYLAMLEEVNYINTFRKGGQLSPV
| Molecule | target or system | assay | system | setting | scale | measurement | result |
| --- | --- | --- | --- | --- | --- | --- | --- |
| RRP8 (Homo sapiens, UniProt O43159) | CEBPZ (Homo sapiens, UniProt Q03701) | cross-linking MS | cell fractions | added: DMTMM | – | cross-linked residues | E272 to K228 |
| P1 F8Y | CCNE2, cyclin fold, Cln2 fusion (human) | yeast growth competition, sequencing | yeast | strong parent motif | relative to: not given, higher = stronger binding | normalised enrichment score | 0.468 |
| NUP62 (Homo sapiens, UniProt P37198) | NUP58 (Homo sapiens, UniProt Q9BVL2) | cross-linking MS | cell fractions | added: DMTMM | – | cross-linked residues | E392 to K312 |
| MDH2 (Homo sapiens, UniProt P40926) | HSPE1 (Homo sapiens, UniProt P61604) | cross-linking MS | – | hits only | – | interaction screen | cross-linked |
| PPIB (Homo sapiens, UniProt P23284) | UTRN (Homo sapiens, UniProt P46939) | cross-linking MS | – | hits only | – | interaction screen | cross-linked |

Repeated from above (single results of other studies):
| Molecule | target or system | assay | system | setting | scale | measurement | result |
| --- | --- | --- | --- | --- | --- | --- | --- |
| NUP62 (Homo sapiens, UniProt P37198) | NUP58 (Homo sapiens, UniProt Q9BVL2) | cross-linking MS | cell fractions | added: DMTMM | – | cross-linked residues | E392 to K312 |
| MDH2 (Homo sapiens, UniProt P40926) | HSPE1 (Homo sapiens, UniProt P61604) | cross-linking MS | – | hits only | – | interaction screen | cross-linked |
| PPIB (Homo sapiens, UniProt P23284) | UTRN (Homo sapiens, UniProt P46939) | cross-linking MS | – | hits only | – | interaction screen | cross-linked |
